Measurements gathered from unrelated publications.
Protocols differ between the studies behind these lines. “And” joins repeats or separate records; there may be more than shown. ± gives the spread as reported.
Sequence of UniProt P46109 (whole entry, looked up): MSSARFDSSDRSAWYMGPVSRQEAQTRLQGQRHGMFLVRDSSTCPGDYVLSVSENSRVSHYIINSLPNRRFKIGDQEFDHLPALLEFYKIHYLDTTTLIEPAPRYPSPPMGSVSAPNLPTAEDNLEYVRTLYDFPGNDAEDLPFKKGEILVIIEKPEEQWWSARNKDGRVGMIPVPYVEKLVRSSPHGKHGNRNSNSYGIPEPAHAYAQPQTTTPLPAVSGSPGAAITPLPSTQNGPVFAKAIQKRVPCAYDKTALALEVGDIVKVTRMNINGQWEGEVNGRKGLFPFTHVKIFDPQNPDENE

Compound	target or system	assay	test system	setting	how to read	endpoint	result
CC(C)C[C@@H](N)C(=O)N[C@H](CC(C)C)C(=O)N[C@H](Cc1ccccc1)C(=O)N[C@H](Cc1ccccc1)C(=O)N[C@H](C)C(N)=O	NGF-differentiated PC-12 neurons	–	–	40 µM, 24 h	reference: untreated	viability	80.9%
CC1=C(/C=C/C(C)=C/C=C/C(C)=C\C(=O)O)C(C)(C)CCC1	human coronavirus OC43	virus-induced cell killing	MRC-5	screen	–	maximum inhibition	16.5%
CC(C)C[C@H](NC(=O)[C@H](C)NC(=O)[C@@H](NC(=O)[C@H](CCCNC(=N)N)NC(=O)[C@H](CC(C)C)NC(=O)[C@H](Cc1c[nH]c2ccccc12)NC(=O)[C@@H]1CCCN1C(=O)[C@@H](N)CCCCN)C(C)C)C(=O)N[C@@H](CS)C(=O)N1CCC[C@H]1C(=O)NCC(=O)O	A549	WST-1	–	8 µM, 24 h	–	viability	82.4% and 86.6% and 92.4%
O=S(=O)(c1ccc(-c2ccc3nccc(Nc4nnc(C5CC5)s4)c3c2)cc1)N1CCOCC1	NIH 3T3	cytotoxicity, PrestoBlue	–	96 h, 2% FBS	–	TC50	> 20 µM
COc1cc2c(Oc3ccc4[nH]c(C)cc4c3F)ccnc2cc1OCC1(N)CC1	–	–	paediatric refractory sarcoma patients	8 mg	–	Appendicitis incidence	0%
Oc1ccc(C(c2ccc(O)cc2)(C(F)(F)F)C(F)(F)F)cc1	HepG2 spheroids	annexin V-FITC/PI flow cytometry	–	10 µM, 24 h	–	late apoptotic cells	10.9 ± 7.09%
COc1cccc(CNC(=O)C2CCN(Cc3cc4ccccc4n3Cc3ccccc3)CC2)c1OC	Vero-E6	CellTiter-Glo ATP	–	72 h, second round 5-point	reference: DMSO 0%, hyamine -100%, more negative, more toxic	maximum response	-11.5%
CC(C)C[C@@H](N)C(=O)N[C@H](CC(C)C)C(=O)N[C@H](Cc1ccccc1)C(=O)N[C@H](Cc1ccccc1)C(N)=O	NGF-differentiated PC-12 neurons	–	–	20 µM, 24 h	reference: untreated	viability	57.4%
CC(=O)c1c(C)c2cnc(Nc3ccc(C4CCN(CCS(C)(=O)=O)CC4)cn3)nc2n(C2CCCC2)c1=O	–	–	human, plasma	oral, 75 mg twice daily, day 21, multiple doses, added: letrozole	–	AUC(0-inf)	1220 ng·h/mL
CC(C)C[C@@H](NC(=O)[C@H](N)CCCCN)C(=O)N[C@H](CC(C)C)C(=O)N[C@H](Cc1ccccc1)C(N)=O	NGF-differentiated PC-12 neurons	–	–	5 µM, 24 h	reference: untreated	viability	100%
CCOc1ccc(CN2CCN(Cc3ccc4c(c3)c3ccccc3n4CC)CC2)cc1	Vero-E6	CellTiter-Glo ATP	–	72 h, second round 5-point	reference: DMSO 0%, hyamine -100%, more negative, more toxic	maximum response	-23.6%
CC(C)C[C@@H](NC(=O)[C@H](N)CCCCN)C(=O)N[C@H](CC(C)C)C(=O)N[C@H](Cc1ccccc1)C(=O)N[C@H](Cc1ccccc1)C(N)=O	NGF-differentiated PC-12 neurons	–	–	10 µM, 24 h	reference: untreated	viability	99.8%
COc1ccccc1-c1cccc(CN2CCCC(C(=O)NCc3ccc(F)cc3)C2)c1 (stereo not drawn)	Vero-E6	CellTiter-Glo ATP	–	72 h, first round 5-point	reference: DMSO 0%, hyamine -100%, more negative, more toxic	maximum response	-20.7%
CC(C)C[C@@H](N)C(=O)N1CCC[C@@H]1C(=O)N[C@H](Cc1ccccc1)C(=O)N[C@H](Cc1ccccc1)C(=O)N[C@H](C)C(N)=O	NGF-differentiated PC-12 neurons	–	–	160 µM, 24 h	reference: untreated	viability	99.5%
Cc1ccc2[nH]c3c(c2c1)CCCC3NCCCNC1CCCc2c1[nH]c1ccc(C)cc21 (stereo not drawn)	A549	–	–	50 µM, 23 h	–	non-viable cells	62.2 ± 27.3%
CO[C@H]1C[C@@H]2CC[C@@H](C)[C@@](O)(O2)C(=O)C(=O)N2CCCC[C@H]2C(=O)O[C@H]([C@H](C)C[C@@H]2CC[C@@H](OC(=O)NCCOCCOCCOCCOCCOCCOCCOCCOCCC(=O)N3CCc4cc(Cn5nc(-c6ccc7oc(N)nc7c6)c6c(N)ncnc65)ccc4C3)[C@H](OC)C2)C[C@@H](O)[C@H](C)/C=C(\C)[C@@H](O)[C@@H](OC)C(=O)[C@H](C)C[C@H](C)/C=C/C=C/C=C/1C	–	–	patients with advanced solid tumours	intravenous, 12 mg weekly, any grade	–	AE leading to discontinuation	25%
C[C@@H](O[C@H]1OCCN(Cc2n[nH]c(=O)[nH]2)[C@H]1c1ccc(F)cc1)c1cc(C(F)(F)F)cc(C(F)(F)F)c1	human coronavirus OC43	virus-induced cell killing	MRC-5	maximum over 10 doses	–	maximum inhibition	0.788%
COc1c2c(cc3oc(-c4ccccc4)cc(=O)c13)OC(C)(C)C=C2	Calu-3	–	–	50 µM	–	cytotoxicity	10.5%
CCCCN(C)CCCNC(=O)c1ccc2nc(N3CCCCC3)sc2c1	Vero-E6	CellTiter-Glo ATP	–	72 h, retest 8-point duplicates	reference: DMSO 0%, hyamine -100%, more negative, more toxic	maximum response	-8.01%
O=c1ccc2ccccc2o1	HepG2	measured: cell count	–	concentration not given, 1 h, inflammation and pH panel	–	probability of response	0.05%
CN1CC[C@@H](c2c(O)cc(O)c3c(=O)cc(-c4ccc(C(F)(F)F)cc4Cl)oc23)[C@@H]1CO	–	measured: Dizziness	B-cell malignancies	oral, 100 mg, intermittent dosing	–	patients with adverse event	0%
CC(C)C[C@@H](NC(=O)[C@H](N)CCCCN)C(=O)N1CCC[C@@H]1C(=O)N[C@H](Cc1ccccc1)C(=O)N[C@H](Cc1ccccc1)C(N)=O	NGF-differentiated PC-12 neurons	–	–	5 µM, 24 h	reference: untreated	viability	100%
CC(C)(C)NCc1ccc(Nc2ccnc3cc(Cl)ccc23)cc1O	Vero-E6	CellTiter-Glo ATP	–	72 h, retest 8-point duplicates	reference: DMSO 0%, hyamine -100%, more negative, more toxic	maximum response	-34%
CC(C)C[C@@H](NC(=O)[C@H](N)CCCCN)C(=O)N1CCC[C@@H]1C(=O)N[C@H](Cc1ccccc1)C(=O)N[C@H](Cc1ccccc1)C(=O)N[C@H](C)C(N)=O	NGF-differentiated PC-12 neurons	–	–	5 µM, 24 h	reference: untreated	viability	100%
O=C1c2c(O)c(=O)ccn2N([C@@H]2c3ccccc3SCc3c2ccc(F)c3F)[C@@H]2COCCN12	–	–	BALB/c mice, plasma	oral, 5 mg/kg baloxavir marboxil, 10 h	–	plasma concentration	5.89 ng/mL
Nc1ncnc2c1ncn2[C@@H]1O[C@@H]2COP(=O)(O)O[C@H]3[C@@H](O)[C@H](n4cnc5c(=O)[nH]cnc54)O[C@@H]3COP(=O)(O)O[C@H]2[C@H]1O	HFF-1	RNA sequencing Reactome analysis, measured: Reactome R-HSA-5627123	–	added: West Nile virus infection	reference: West Nile virus infected cells, downregulated pathway	pathway fold enrichment	13.5
CCC1CCCCN1CCCNC(=O)c1sc2nc(C)cc(C)c2c1-n1cccc1 (stereo not drawn)	Vero-E6	CellTiter-Glo ATP	–	72 h, first round 5-point	reference: DMSO 0%, hyamine -100%, more negative, more toxic	maximum response	-2%
CN(CC[C@H](Oc1cccc2ccccc12)c1cccs1)N=O	TK6	–	–	5 µM, 4 h, added: hamster liver S9	reference: vehicle	relative survival	40.9%
Cc1ccc2c(NC(C)c3ccccc3)nc(N3CCNCC3)nc2c1 (stereo not drawn)	Vero-E6	CellTiter-Glo ATP	–	72 h, second round 5-point	reference: DMSO 0%, hyamine -100%, more negative, more toxic	maximum response	-9.46%
C[C@H]1CN(c2n[nH]c3nc(N[C@H]4CC[C@H](NS(=O)(=O)CCC(F)(F)F)CC4)ncc23)CCO1	Crk-like protein (Homo sapiens, UniProt P46109)	biochemical	–	–	–	IC50	≥ 20 µM

A few entries again:
Compound	target or system	assay	test system	setting	how to read	endpoint	result
CC(C)C[C@@H](N)C(=O)N1CCC[C@@H]1C(=O)N[C@H](Cc1ccccc1)C(=O)N[C@H](Cc1ccccc1)C(=O)N[C@H](C)C(N)=O	NGF-differentiated PC-12 neurons	–	–	160 µM, 24 h	reference: untreated	viability	99.5%
CC(C)(C)NCc1ccc(Nc2ccnc3cc(Cl)ccc23)cc1O	Vero-E6	CellTiter-Glo ATP	–	72 h, retest 8-point duplicates	reference: DMSO 0%, hyamine -100%, more negative, more toxic	maximum response	-34%
O=C1c2c(O)c(=O)ccn2N([C@@H]2c3ccccc3SCc3c2ccc(F)c3F)[C@@H]2COCCN12	–	–	BALB/c mice, plasma	oral, 5 mg/kg baloxavir marboxil, 10 h	–	plasma concentration	5.89 ng/mL
C[C@H]1CN(c2n[nH]c3nc(N[C@H]4CC[C@H](NS(=O)(=O)CCC(F)(F)F)CC4)ncc23)CCO1	Crk-like protein (Homo sapiens, UniProt P46109)	biochemical	–	–	–	IC50	≥ 20 µM
